{"data": "Measured values gathered from unrelated publications", "note": "Every numbered part comes from another study and shows a few of its results, in no order. Changes are numbered by the printed parent chain."}
{"data": "Block 1", "target": "CCNF, cyclin fold, Cln2 fusion (human)", "technique": "yeast growth competition, sequencing", "sample": "yeast", "notes": "strong parent motif", "baseline": "not given", "reading": "higher = stronger binding", "parent": "ORC1 docking peptide (human); PRARKRLELGNLG"}
{"Variant": "PRARKRLELGNLD [G13D]", "normalised enrichment score": 5.42}
{"Variant": "PRMRKRLELGNLG [A3M]", "normalised enrichment score": 2.93}
{"Variant": "PRGRKRLELGNLG [A3G]", "normalised enrichment score": 0.973}
{"Variant": "PRARKRLEWGNLG [L9W]", "normalised enrichment score": 3.65}
{"Variant": "PRARKDLELGNLG [R6D]", "normalised enrichment score": 0.599}
{"Variant": "PRAPKRLELGNLG [R4P]", "normalised enrichment score": 0.986}
{"Variant": "PRARKRLELGNMG [L12M]", "normalised enrichment score": 4.15}
{"Variant": "PRSRKRLELGNLG [A3S]", "normalised enrichment score": 1.47}
{"Variant": "PRARKRLELGGLG [N11G]", "normalised enrichment score": 4.53}
{"Variant": "PRARKRLNLGNLG [E8N]", "normalised enrichment score": 2.97}
{"Variant": "PRARKRLEQGNLG [L9Q]", "normalised enrichment score": 1.24}
{"Variant": "PRARKRLELGNLT [G13T]", "normalised enrichment score": 2.77}
{"Variant": "LRARKRLELGNLG [P1L]", "normalised enrichment score": 2.74}
{"Variant": "PAARKRLELGNLG [R2A]", "normalised enrichment score": 3.3}
{"Variant": "PRARKRNELGNLG [L7N]", "normalised enrichment score": 1.36}
{"data": "Block 2", "target": "Interferon regulatory factor 7, full length, phosphomimetic (IRF7, Homo sapiens, UniProt Q92985, residues 1-503, S101K/S471D/S472D/S475D/S476D/S477D/S483D/S484D/S487D)", "technique": "protein-binding microarray", "molecule type": "double-stranded DNA, one strand shown", "sample": "in vitro", "concentration": "250 nM", "notes": "60-bp whole probe", "together with": "salmon DNA 0.4 mg/ml", "baseline": "random background probes", "reading": "higher = stronger binding", "constant ends, left off below": "GCCTAGCAC … GTCTTGATTCGCTTGACGCTGCTG", "Target sequence (chain)": "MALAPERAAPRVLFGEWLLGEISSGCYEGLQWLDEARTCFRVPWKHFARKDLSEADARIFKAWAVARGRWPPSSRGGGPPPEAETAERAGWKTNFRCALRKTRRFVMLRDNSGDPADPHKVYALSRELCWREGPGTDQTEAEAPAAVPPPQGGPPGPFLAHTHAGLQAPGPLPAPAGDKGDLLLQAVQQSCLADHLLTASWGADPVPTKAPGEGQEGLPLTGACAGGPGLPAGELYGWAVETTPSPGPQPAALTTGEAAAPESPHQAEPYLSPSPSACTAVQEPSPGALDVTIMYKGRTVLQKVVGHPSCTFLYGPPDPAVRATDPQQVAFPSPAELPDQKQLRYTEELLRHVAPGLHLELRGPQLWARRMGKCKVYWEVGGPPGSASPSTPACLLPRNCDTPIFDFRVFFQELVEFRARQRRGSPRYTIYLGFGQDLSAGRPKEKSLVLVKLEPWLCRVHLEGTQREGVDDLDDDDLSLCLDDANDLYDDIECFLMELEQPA"}
{"Strand": "GGCGGTTCCCTTTTCCTGACGTGCTAG", "log fluorescence [z-score]": 2.65}
{"Strand": "GACGGTGTCGGTTTCGGGACGTGCTAG", "log fluorescence [z-score]": 2.62}
{"Strand": "TCAGTTTACATTTTCCAACTGTGCTAG", "log fluorescence [z-score]": 1.86}
{"Strand": "TTTCCACTTTCTTTTGCTTGGTGCTAG", "log fluorescence [z-score]": 3.96}
{"Strand": "TTAGATCTCAGTCTCGAGTAGTGCTAG", "log fluorescence [z-score]": 0.38}
{"Strand": "TTAGATCTCAGACTGAATTAGTGCTAG", "log fluorescence [z-score]": -0.226}
{"Strand": "TTAGGTATCGACGATCGGTTAGTGCTA", "log fluorescence [z-score]": -0.336}
{"Strand": "TTAGGTATCGGGACTGGGTAAGTGCTA", "log fluorescence [z-score]": 0.0631}
{"Strand": "TCATTTTTTTTCATCATTGCGTGCTAG", "log fluorescence [z-score]": 0.999}
{"Strand": "GACGAACTGAGTTCCGAGACGTGCTAG", "log fluorescence [z-score]": 0.206}
{"Strand": "GACGTTTTCGACACTGGGGACGTGCTA", "log fluorescence [z-score]": 0.92}
{"Strand": "CAAAACATCATTGTCATATAGTGCTAG", "log fluorescence [z-score]": -0.0666}
{"Strand": "TTAGAATTCAGTTTCGATTAGTGCTAG", "log fluorescence [z-score]": 9.05}
{"Strand": "TTAGATATCGGGTAGCGATTAGTGCTA", "log fluorescence [z-score]": -0.2}
{"Strand": "TCAACTCTGCCTCTAACACTGTGCTAG", "log fluorescence [z-score]": -0.126}
{"Strand": "CACGATTTCAGTTTCGAGACGTGCTAG", "log fluorescence [z-score]": 5.15}
{"Strand": "GACGATTTCGGGACTGGAGAAGTGCTA", "log fluorescence [z-score]": 0.295}
{"Strand": "TTATGACTGCTTCTCCTTTAGTGCTAG", "log fluorescence [z-score]": 0.203}
{"Strand": "TACTAGAGTAAAACCCTGGCGTGCTAG", "log fluorescence [z-score]": -0.0548}
{"data": "Block 3", "target": "ABI1, truncated, D143A, DHFR fusion (Arabidopsis thaliana)", "technique": "DHFR PCA, deep sequencing", "sample": "yeast", "notes": "methotrexate growth selection, single substitutions", "together with": "(+)-ABA 2500 µM", "baseline": "wild-type fitted maximum", "reading": "higher = stronger binding", "parent": "PYL1, truncated, DHFR fusion (Arabidopsis thaliana); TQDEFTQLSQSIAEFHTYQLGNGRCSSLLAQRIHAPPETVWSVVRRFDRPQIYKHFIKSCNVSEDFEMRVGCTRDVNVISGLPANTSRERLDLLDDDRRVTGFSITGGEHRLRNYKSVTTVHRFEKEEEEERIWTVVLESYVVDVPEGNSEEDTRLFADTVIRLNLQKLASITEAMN; partner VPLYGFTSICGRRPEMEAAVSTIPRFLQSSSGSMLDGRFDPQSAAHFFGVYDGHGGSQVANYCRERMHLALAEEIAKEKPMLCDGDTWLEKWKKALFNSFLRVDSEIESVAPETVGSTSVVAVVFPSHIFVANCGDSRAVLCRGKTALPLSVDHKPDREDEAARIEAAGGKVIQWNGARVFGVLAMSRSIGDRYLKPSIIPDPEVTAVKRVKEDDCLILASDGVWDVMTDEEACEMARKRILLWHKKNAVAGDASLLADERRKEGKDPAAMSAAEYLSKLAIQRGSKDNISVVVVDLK"}
{"Variant": "L138G", "relative binding score [%]": 18.3}
{"Variant": "Q19H", "relative binding score [%]": 97.8}
{"Variant": "V121C", "relative binding score [%]": 98.6}
{"Variant": "R98G", "relative binding score [%]": 96.2}
{"Variant": "S11G", "relative binding score [%]": 101}
{"Variant": "S9I", "relative binding score [%]": 94.8}
{"Variant": "E151Q", "relative binding score [%]": 92.6}
{"data": "Other studies, line by line"}
{"Molecule": "PhoQ, residues 284 288 289 292 302 303 ASHLAV", "target": "PhoP, residues 12 14 15 18 19 HHYTI (Escherichia coli, UniProt P23836)", "assay": "Sort-seq, item: YFP reporter", "system": "E. coli", "setting": "PhoQ-PhoP variant library, together with: 10 µM Mg2+", "scale": "baseline: high Mg2+ state, higher = stronger signaling", "endpoint": "fold induction", "value": 0.683}
